Measurements gathered from unrelated publications.
Each numbered part is a random draw from the data of one study; scales do not carry over between parts. Positions count from the first letter of the parent shown.

Block 1
Target: vanadate, free oxyanion
Technique: microfluidic competitive inhibition
Medium: in vitro, cell-free expressed
Tested at: not given
Notes: derived from inhibition constants, unchanged parent 676 nM
Direction: lower = stronger binding
Starting sequence: PafA, mature enzyme, eGFP fusion (Elizabethkingia meningoseptica, UniProt Q9KJX5); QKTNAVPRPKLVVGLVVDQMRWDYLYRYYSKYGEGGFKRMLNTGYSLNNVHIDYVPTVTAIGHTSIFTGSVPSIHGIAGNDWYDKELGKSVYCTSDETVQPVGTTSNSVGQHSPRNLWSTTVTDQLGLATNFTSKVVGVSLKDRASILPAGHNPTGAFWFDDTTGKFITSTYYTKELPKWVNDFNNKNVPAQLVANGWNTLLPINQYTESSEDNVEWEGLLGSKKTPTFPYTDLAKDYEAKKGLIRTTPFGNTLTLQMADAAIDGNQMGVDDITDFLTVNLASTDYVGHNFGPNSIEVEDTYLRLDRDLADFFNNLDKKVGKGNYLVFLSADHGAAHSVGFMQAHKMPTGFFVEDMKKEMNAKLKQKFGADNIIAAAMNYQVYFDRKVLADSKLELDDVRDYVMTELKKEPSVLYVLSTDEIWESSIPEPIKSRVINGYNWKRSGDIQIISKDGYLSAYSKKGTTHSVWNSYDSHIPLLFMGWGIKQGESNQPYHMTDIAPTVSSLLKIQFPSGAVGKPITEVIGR
Change	oxyanion analog dissociation constant
S170G	346 nM
A375G	586 nM
A261G	878 nM
D84G	1.01 µM
I427G	3.32 µM
T464V	671 nM
I77V	848 nM
E34G	740 nM
H337G	666 nM
Q206G	509 nM
K241V	651 nM
D453G	565 nM
L244G	744 nM
D300G	1.1 µM
T521V	668 nM
S457V	783 nM
A458V	592 nM
Q125V	899 nM
G323V	742 nM
G243A	599 nM
G14V	708 nM
F312V	648 nM
D311G	588 nM
S467G	442 nM
P190G	601 nM

Block 2
Target: ABI1, truncated, D143A, DHFR fusion (Arabidopsis thaliana)
Technique: DHFR PCA, deep sequencing
Medium: yeast
Notes: methotrexate growth selection, single substitutions
Together with: (+)-ABA 4.8 µM
Baseline: wild-type fitted maximum
Direction: higher = stronger binding
Starting sequence: PYL1, truncated, DHFR fusion (Arabidopsis thaliana); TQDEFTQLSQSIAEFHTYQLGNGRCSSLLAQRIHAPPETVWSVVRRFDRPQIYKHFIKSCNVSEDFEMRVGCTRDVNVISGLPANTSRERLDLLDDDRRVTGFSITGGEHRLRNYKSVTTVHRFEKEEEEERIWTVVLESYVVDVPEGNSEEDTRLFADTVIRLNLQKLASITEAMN; partner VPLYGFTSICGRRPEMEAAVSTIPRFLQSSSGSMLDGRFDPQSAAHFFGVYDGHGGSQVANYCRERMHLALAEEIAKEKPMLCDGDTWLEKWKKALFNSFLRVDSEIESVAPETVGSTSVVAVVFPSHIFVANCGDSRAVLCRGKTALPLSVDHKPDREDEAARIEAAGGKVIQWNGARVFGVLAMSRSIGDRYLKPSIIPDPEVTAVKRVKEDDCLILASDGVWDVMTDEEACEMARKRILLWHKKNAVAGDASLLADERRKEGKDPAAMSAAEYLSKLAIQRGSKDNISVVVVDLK
Change	relative binding score
W134G	68.4%
E14A	40%
T135L	-6.56%
R123H	72.3%
G81S	23.5%
D97K	76.4%
F15I	11.1%
S26R	25.6%

Block 3
Target: CCNF, cyclin fold, Cln2 fusion (human)
Technique: yeast growth competition, sequencing
Medium: yeast
Notes: strong parent motif
Baseline: not given
Direction: higher = stronger binding
Starting sequence: viral docking peptide; KGVKRKLFAEDSS; partner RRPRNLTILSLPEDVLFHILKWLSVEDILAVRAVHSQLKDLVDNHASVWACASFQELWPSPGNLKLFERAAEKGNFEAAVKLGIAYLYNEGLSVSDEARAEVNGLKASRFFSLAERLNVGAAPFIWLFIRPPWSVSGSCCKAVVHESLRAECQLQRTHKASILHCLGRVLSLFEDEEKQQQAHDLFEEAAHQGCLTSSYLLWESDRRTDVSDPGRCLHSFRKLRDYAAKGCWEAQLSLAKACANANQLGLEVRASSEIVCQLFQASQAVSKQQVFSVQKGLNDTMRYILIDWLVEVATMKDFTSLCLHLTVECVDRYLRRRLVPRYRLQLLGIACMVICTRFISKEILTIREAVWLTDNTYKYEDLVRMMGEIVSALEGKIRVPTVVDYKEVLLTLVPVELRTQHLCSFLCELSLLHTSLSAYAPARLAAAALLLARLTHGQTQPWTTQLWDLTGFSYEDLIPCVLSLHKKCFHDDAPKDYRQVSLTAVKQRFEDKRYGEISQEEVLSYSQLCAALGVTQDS
Change	normalised enrichment score
S12N	8.06
S12T	7.99
L7T	0.629
A9Q	7.97
A9C	7.83
R5I	1.01
R5A	0.859
F8V	0.893
K6T	6.98
L7C	0.88
R5D	0.471
E10D	8.6
G2F	8.26
V3W	2.99
K6W	1.56
K4V	7.83
K6V	7.68
K6P	4.72

Block 4
Target: Histone acetyltransferase KAT6A, both winged helices, GST fusion (KAT6A, Homo sapiens, UniProt Q92794, residues 1-181)
Technique: protein binding microarray
Molecule type: double-stranded DNA, one strand shown
Medium: in vitro
Tested at: not given
Notes: 8-mer, flanks averaged, mean of 2 arrays, mostly near background
Baseline: not given
Direction: higher = stronger binding
Residues (chain): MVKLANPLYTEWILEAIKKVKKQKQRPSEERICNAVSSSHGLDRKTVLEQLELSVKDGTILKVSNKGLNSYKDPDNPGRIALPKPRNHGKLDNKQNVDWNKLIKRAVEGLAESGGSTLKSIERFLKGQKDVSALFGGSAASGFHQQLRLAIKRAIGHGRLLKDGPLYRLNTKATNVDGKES
Oligonucleotide	E-score
ACCGTGGC	0.0171
GTGGACGA	-0.101
AGTACGAT	-0.0502
CACTGAGG	-0.0714
CATCAACG	-0.16
ATGAAACC	-0.0239
CCTGTTAG	-0.106
CCCGAACA	-0.00607

Some of these lines once more (block 1):
Change	oxyanion analog dissociation constant
D84G	1.01 µM
D300G	1.1 µM
E34G	740 nM
D453G	565 nM
S170G	346 nM
H337G	666 nM
S457V	783 nM
L244G	744 nM
A375G	586 nM
